# Assay results of several laboratories.
# Each numbered part is a random draw from the data of one study; scales do not carry over between parts.

# Sample 1 — technique: aptamer microarray, sandwich; molecule type: DNA with 2'F-ANA; matrix: in vitro; concentration: 200 nM; together with: Cy3 exosite-II aptamer, 400 nM; direction: higher = stronger binding; strand: GGTTGGTGTGGTTGG
# Target: Prothrombin, mature alpha-thrombin (F2, Homo sapiens, UniProt P00734)
# Notes: whole 15-mer aptamer, many near background
Modification,mean fluorescence intensity [a.u.]
2'F-ANA at 2 3 6 7 11 12 13 14,336
2'F-ANA at 4 5 13 15,48.6
2'F-ANA at 3 4 5 7 9 10 11 12 13 14 15,53.3
2'F-ANA at 1 5 6 8 9 12 14 15,49.7
2'F-ANA at 2 5 7 8 14,43.7

# Sample 2 — technique: RNA Bind-n-Seq; molecule type: RNA; matrix: in vitro; concentration: 1 µM; notes: whole 134-nt RNA, ends assumed; together with: 150 mM KCl; relative to: input library; direction: higher = stronger binding
# Target: Ras GTPase-activating protein-binding protein 1, C-terminal RGG region (G3BP1, Homo sapiens, UniProt Q13283)
# Sequence of UniProt Q13283 (whole entry, looked up): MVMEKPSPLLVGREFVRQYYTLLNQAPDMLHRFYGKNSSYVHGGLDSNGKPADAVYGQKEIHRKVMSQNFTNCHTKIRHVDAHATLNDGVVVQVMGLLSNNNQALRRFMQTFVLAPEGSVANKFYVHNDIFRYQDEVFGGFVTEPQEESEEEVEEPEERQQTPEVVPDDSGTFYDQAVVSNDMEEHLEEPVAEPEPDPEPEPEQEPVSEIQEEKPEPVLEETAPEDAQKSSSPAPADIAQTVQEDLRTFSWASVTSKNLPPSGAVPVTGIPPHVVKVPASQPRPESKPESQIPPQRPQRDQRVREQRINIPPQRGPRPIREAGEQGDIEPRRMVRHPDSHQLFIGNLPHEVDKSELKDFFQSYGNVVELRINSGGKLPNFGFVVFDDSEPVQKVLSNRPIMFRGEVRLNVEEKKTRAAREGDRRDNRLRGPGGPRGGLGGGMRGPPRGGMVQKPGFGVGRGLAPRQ
# Shared flanks, not repeated: GGGAGUUCUACAGUCCGACGAUC … UGGAAUUCUCGGGUGUCAAGG
Strand,log2 enrichment
CACAGACAACACGCACCCACACAGACCCAGAGGGAAGGGGUUGGGAUGGGGACAGGGUGCACAGCAGGGCGGGGUAGGACCCCAGCCCCU,1.61
AAGUCCUGUGCUACACAUCGUAUGUACCGAAUCAAAUUUUUAAACCCAAACCCAAAAAAGUAUUAUGUUACGCCGUUCGGAUCUGCACUU,-0.964
UGUGCUACACAUCGUAUGUACCGAAUCGGGAAAAAAAGGGAAAAAAAGGGGAAAAAAAGGGGAAAGUAUUAUGUUACGCCGUUCGGAUCU,-0.587
UCCUGUGCUACACAUCGUAUGUACCGAAUCGGGGAAAAAGGGGUUUGGGGUUUUUGGGGAAAGUAUUAUGUUACGCCGUUCGGAUCUGCA,2.66
UGGGAGGUGGAUUUUGUUUAUUUUUUUAGCUCAUUUCCAGGGGUGGGUAUUUUUUUUUAAUAUGUGUCAUGAAUAAAGUUGUUUUUGAAA,2.89

# Sample 3 — technique: protein binding microarray; molecule type: double-stranded DNA, one strand shown; matrix: in vitro; concentration: not given; relative to: not given; direction: higher = stronger binding
# Target: Histone acetyltransferase KAT6A, both winged helices, GST fusion (KAT6A, Homo sapiens, UniProt Q92794, residues 1-181)
# Notes: 8-mer, flanks averaged, mean of 2 arrays, mostly near background
# Construct (chain): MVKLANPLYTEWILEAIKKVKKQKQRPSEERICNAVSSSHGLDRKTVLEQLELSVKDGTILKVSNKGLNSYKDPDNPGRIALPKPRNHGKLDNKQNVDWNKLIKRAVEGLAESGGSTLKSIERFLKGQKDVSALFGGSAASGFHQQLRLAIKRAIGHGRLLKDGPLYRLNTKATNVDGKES
Strand,E-score
TGTGGAAA,-0.163
CCCTTATA,-0.0629
AGATAATC,-0.0437
AGTGAGTG,-0.183
CACGGTCG,0.0832

# Mixed results
Molecule,target,test,system,conditions,scale,measurement,value
"PhoQ, residues 284 288 289 292 302 303 AQGLTV","PhoP, residues 12 14 15 18 19 IFFTR (Escherichia coli, UniProt P23836)","Sort-seq, item: YFP reporter",E. coli,"PhoQ-PhoP variant library, together with: 10 µM Mg2+","relative to: high Mg2+ state, higher = stronger signaling",fold induction,22.2
